Measured values pooled from the literature.
Compare with care: the assays were run in different laboratories.
TDP1: Tyrosyl-DNA phosphodiesterase 1 (TDP1, Homo sapiens, UniProt Q9NUW8)
UniProt Q9NUW8, sequence (whole entry, looked up): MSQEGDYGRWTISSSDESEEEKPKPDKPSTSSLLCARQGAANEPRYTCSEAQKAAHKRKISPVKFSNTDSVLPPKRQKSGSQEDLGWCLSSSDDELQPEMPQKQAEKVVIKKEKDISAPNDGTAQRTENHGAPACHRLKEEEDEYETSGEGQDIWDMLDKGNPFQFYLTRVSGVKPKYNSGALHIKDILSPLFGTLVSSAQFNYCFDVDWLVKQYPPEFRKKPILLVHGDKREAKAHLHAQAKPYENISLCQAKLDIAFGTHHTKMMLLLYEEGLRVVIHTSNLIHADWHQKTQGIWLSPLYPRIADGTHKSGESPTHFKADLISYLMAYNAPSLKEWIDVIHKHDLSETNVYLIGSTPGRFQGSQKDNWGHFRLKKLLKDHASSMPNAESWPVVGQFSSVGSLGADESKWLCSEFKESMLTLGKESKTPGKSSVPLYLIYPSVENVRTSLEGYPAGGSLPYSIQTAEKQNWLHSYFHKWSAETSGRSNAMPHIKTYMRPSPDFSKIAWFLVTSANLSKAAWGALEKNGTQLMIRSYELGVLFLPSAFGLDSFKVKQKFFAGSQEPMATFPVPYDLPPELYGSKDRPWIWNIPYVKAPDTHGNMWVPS

The viability Z-score of `O=C(CCNC(=O)c1ccsc1)Nc1cccc(Oc2ccc(Cl)cc2)c1` is reported as 0.689 (HepG2 transfected with LHBs/HBc; CellTiter-Glo; 10 µM; direction not given).
`COc1ccc2nccc(CC[C@H]3OC[C@H](NCc4ccc(Cl)c(Cl)c4)CO3)c2c1` has an IC50 of 10.6 µg/mL (HepG2; cytotoxicity; 24 h).
For `COc1ccccc1NC(=O)OC1C(C)C(OC)C=COC2(C)Oc3c(C)c(O)c4c(c3C2=O)C2=NC3(CCN(CC(C)C)CC3)NC2=C(NC(=O)C(C)=CC=CC(C)C(O)C(C)C(O)C1C)C4=O` (stereo not shown), the intracellular/extracellular ratio was 140 (THP-1 derived macrophages; relative to: intracellular over extracellular).
For `O=C1OCc2cc(O)c(=O)c(O)cc21`, the CC50 was 100 µM (HepDES19; cell growth or viability, MTS; 72 h).
For `COc1cc(Br)ccc1C=NOCc1ccc(-c2nc3cc(-c4ccccc4)ccn3c2Nc2ccc(C(=O)O)cc2)cc1`, the inhibition was 40.7% (TDP1; enzyme activity, inhibitor; 100 µM, unpurified compound).
For `N=C(N)NCCC[C@@H]1NC(=O)[C@@H](CCCNC(=N)N)NC(=O)[C@H](CCCNC(=N)N)NC(=O)[C@@H](Cc2ccc3ccccc3c2)NC(=O)[C@@H](Cc2ccc3ccccc3c2)NC(=O)[C@@H](Cc2ccc3ccccc3c2)NC(=O)[C@@H](CCCNC(=N)N)NC1=O`, the HC50 was 150 µg/mL (human red blood cells; haemolysis; 2 h, 37 °C).
For `Cc1cc(O)c(=O)c(O)cc1C(=O)CC1CCCCC1`, the CC50 was 76.6 µM (HepDES19; cell growth or viability, MTS; 72 h).
For `N=C(N)NCCC[C@@H]1NC(=O)[C@H](CCCNC(=N)N)NC(=O)[C@@H](CCCNC(=N)N)NC(=O)[C@H](C(c2ccccc2)c2ccccc2)NC(=O)[C@H](C(c2ccccc2)c2ccccc2)NC(=O)[C@H](C(c2ccccc2)c2ccccc2)NC(=O)[C@H](CCCNC(=N)N)NC1=O`, the HC50 was 165 µg/mL (human red blood cells; haemolysis; 2 h, 37 °C).
For `O=C(/C=C/c1ccccn1)c1ccccc(=O)c1O`, the CC50 was 100 µM (HepDES19; cell growth or viability, MTS; 72 h).
`COC1C=COC2(C)Oc3c(C)c(O)c4c(c3C2=O)C2=NC3(CCN(CC(C)C)CC3)NC2=C(NC(=O)C(C)=CC=CC(C)C(O)C(C)C(O)C(C)C(OC(=O)Nc2cscn2)C1C)C4=O` (stereo not shown) has an intracellular/extracellular ratio of 92 (THP-1 derived macrophages; relative to: intracellular over extracellular).
With `COc1c(C)c(OS(=O)(=O)c2ccccc2)c(C)c(OS(=O)(=O)c2ccccc2)c1C(=O)/C=C/c1ccccc1` the IC50 was > 50 µM (normal human liver cell line; cytotoxicity, SRB; 72 h).
The inhibition of `O=C(O)c1ccc(Nc2c(-c3ccccc3)nc3ccc(CON=Cc4nc5ccccc5s4)cn23)cc1` is reported as 10.6% (TDP1; enzyme activity, inhibitor; 100 µM, unpurified compound).
`COC(=O)c1c2c(cc(O)c(=O)c1O)COC2=O` has a CC50 of 88.2 µM (HepDES19; cell growth or viability, MTS; 72 h).
The CC50 of `CC1(F)CN(C(=O)Cn2c(=O)c(C(=O)NCc3ccc(Cl)cc3)cc3nc(N4CCN(CCN)C4=O)cnc32)C1` is reported as > 40 µM (MRC-5; cell viability, CCK-8).
With `CC(=O)NC(CCc1ccc(Cl)c(Cl)c1)c1ccc(O)c(=O)cc1` (stereo not shown) the CC50 was 4.2 µM (HepDES19; cell growth or viability, MTS; 72 h).
The TC50 of `O=S(=O)(NCc1ccncc1)c1ccc(C2CCCCC2)cc1` is reported as 163 nM (human iPSC-derived microglia-like cells; caspase-3/7 activation, Caspase-Glo luminescence).
With `N=C(N)NCCC[C@@H]1NC(=O)[C@H](CCCNC(=N)N)NC(=O)[C@@H](CCCNC(=N)N)NC(=O)[C@@H](CCCNC(=N)N)NC(=O)[C@@H](C(c2ccccc2)c2ccccc2)NC(=O)[C@@H](Cc2c[nH]c3ccccc23)NC(=O)[C@@H](C(c2ccccc2)c2ccccc2)NC1=O` the HC50 was 305 µg/mL (human red blood cells; haemolysis; 2 h, 37 °C).
`COc1ccc(OC)c(C2=Nn3c(nnc3-c3ccc(Cl)cc3)SC2)c1` has an IC50 of > 100 µM (Uncharacterized protein (Trypanosoma brucei brucei, UniProt Q386Q8); inhibitor, coupled colorimetric; Trypanosoma brucei).
The viability of `Cc1ccc(-n2cc(CSc3nc4ccccc4n3Cc3cn(-c4ccc(C)cc4)nn3)nn2)cc1` is reported as 86.2% (HEK293; MTT; 7.81 ppm).
The CC50 of `Cc1cc(O)c(=O)c(O)cc1C(=O)c1cccc2ccccc12` is reported as > 100 µM (HepDES19; cell growth or viability, MTS; 72 h).
For `COC1C=COC2(C)Oc3c(C)c(O)c4c(c3C2=O)C2=NC3(CCN(CC(C)C)CC3)NC2=C(NC(=O)C(C)=CC=CC(C)C(O)C(C)C(O)C(C)C(OC(=O)c2cccnc2)C1C)C4=O` (stereo not shown), the intracellular/extracellular ratio was 44.2 (THP-1 derived macrophages; 30 min; relative to: intracellular over extracellular).
`CC[C@H](C)[C@@H](C(=O)N[C@@H](Cc1ccc(O)cc1)C(=O)N1CCC[C@H]1C(=O)N[C@@H](Cc1ccccc1)C(=O)O)n1cc(C(Cc2ccc(O)cc2)NC(=O)[C@@H](NC(=O)[C@H](CCCNC(=N)N)NC(=O)[C@@H](N)CC(=O)O)C(C)C)nn1` (stereo partly shown) gave a viability of 64% (HepG2; cell growth or viability, MTT; 200 µM, 24 h).

Excerpt of the above:
`COC1C=COC2(C)Oc3c(C)c(O)c4c(c3C2=O)C2=NC3(CCN(CC(C)C)CC3)NC2=C(NC(=O)C(C)=CC=CC(C)C(O)C(C)C(O)C(C)C(OC(=O)Nc2cscn2)C1C)C4=O` (stereo not shown) has an intracellular/extracellular ratio of 92 (THP-1 derived macrophages; relative to: intracellular over extracellular).
With `COc1c(C)c(OS(=O)(=O)c2ccccc2)c(C)c(OS(=O)(=O)c2ccccc2)c1C(=O)/C=C/c1ccccc1` the IC50 was > 50 µM (normal human liver cell line; cytotoxicity, SRB; 72 h).
The inhibition of `O=C(O)c1ccc(Nc2c(-c3ccccc3)nc3ccc(CON=Cc4nc5ccccc5s4)cn23)cc1` is reported as 10.6% (TDP1; enzyme activity, inhibitor; 100 µM, unpurified compound).
`COC(=O)c1c2c(cc(O)c(=O)c1O)COC2=O` has a CC50 of 88.2 µM (HepDES19; cell growth or viability, MTS; 72 h).
